Published values gathered from unrelated publications.
Every numbered part comes from another study and shows a few of its results, in no order.
Chain of UniProt P0C264 (whole entry, looked up): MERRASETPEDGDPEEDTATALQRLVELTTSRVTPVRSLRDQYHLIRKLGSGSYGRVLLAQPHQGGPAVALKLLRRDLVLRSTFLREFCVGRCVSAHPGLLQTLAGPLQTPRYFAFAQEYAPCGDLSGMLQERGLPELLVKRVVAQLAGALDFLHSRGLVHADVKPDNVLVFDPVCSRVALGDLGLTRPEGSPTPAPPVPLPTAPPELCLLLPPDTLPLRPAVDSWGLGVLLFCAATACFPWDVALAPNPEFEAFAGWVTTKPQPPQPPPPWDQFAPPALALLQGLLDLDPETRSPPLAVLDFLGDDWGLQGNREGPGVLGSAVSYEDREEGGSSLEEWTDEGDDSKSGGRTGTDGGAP
Chain of UniProt Q07912 (whole entry, looked up): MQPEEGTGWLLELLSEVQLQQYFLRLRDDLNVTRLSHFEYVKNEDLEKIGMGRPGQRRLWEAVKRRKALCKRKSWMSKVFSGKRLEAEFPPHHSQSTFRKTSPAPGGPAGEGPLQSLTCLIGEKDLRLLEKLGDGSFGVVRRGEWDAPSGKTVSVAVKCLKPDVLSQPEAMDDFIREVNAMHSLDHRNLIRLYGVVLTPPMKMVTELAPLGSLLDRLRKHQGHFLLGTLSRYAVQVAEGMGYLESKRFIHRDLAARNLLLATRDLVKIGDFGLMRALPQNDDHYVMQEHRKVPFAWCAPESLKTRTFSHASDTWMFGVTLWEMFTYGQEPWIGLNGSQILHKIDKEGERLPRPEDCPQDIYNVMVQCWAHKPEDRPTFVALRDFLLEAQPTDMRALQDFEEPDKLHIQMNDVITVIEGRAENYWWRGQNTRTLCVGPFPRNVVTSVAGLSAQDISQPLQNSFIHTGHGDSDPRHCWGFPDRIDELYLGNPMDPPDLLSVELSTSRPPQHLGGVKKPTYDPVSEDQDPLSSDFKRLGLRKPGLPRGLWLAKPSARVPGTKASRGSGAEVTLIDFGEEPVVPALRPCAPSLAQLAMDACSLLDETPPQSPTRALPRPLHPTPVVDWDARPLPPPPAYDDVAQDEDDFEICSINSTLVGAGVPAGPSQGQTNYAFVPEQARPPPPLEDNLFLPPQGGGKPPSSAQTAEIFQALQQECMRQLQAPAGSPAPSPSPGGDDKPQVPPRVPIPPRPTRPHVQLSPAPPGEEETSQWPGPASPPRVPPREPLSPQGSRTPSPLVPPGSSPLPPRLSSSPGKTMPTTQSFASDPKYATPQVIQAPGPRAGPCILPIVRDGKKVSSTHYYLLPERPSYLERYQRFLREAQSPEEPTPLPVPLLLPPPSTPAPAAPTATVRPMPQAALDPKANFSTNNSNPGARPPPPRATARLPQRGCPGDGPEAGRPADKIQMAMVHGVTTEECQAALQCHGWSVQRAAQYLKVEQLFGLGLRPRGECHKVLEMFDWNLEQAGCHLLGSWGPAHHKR
Chain of UniProt P54762 (whole entry, looked up): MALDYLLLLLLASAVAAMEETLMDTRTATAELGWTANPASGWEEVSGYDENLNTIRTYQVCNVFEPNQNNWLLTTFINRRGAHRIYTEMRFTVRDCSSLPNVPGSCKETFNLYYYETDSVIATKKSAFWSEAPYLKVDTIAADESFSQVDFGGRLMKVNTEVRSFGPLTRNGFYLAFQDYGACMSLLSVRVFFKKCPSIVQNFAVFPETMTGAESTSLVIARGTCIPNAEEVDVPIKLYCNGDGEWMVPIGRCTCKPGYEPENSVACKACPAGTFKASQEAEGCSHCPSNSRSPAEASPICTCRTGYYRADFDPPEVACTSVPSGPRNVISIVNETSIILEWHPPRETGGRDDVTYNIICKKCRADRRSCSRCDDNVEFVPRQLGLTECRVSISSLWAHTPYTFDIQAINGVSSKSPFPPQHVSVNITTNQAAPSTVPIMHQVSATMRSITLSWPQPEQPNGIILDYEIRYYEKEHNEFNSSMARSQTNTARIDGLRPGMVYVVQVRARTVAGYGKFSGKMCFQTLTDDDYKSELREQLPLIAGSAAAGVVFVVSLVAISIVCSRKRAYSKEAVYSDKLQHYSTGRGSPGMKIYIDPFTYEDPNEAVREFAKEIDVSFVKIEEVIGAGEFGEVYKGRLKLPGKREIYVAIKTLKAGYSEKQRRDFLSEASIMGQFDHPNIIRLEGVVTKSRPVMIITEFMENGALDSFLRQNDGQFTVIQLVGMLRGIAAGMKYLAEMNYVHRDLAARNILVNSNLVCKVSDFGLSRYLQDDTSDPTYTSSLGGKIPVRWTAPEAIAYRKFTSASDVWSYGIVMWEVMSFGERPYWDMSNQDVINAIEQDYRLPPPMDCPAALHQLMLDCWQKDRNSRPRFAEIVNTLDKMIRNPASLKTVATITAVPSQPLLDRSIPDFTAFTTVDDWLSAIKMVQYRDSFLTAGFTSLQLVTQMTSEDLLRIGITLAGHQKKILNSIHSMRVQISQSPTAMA
Chain of UniProt Q7L7X3 (whole entry, looked up): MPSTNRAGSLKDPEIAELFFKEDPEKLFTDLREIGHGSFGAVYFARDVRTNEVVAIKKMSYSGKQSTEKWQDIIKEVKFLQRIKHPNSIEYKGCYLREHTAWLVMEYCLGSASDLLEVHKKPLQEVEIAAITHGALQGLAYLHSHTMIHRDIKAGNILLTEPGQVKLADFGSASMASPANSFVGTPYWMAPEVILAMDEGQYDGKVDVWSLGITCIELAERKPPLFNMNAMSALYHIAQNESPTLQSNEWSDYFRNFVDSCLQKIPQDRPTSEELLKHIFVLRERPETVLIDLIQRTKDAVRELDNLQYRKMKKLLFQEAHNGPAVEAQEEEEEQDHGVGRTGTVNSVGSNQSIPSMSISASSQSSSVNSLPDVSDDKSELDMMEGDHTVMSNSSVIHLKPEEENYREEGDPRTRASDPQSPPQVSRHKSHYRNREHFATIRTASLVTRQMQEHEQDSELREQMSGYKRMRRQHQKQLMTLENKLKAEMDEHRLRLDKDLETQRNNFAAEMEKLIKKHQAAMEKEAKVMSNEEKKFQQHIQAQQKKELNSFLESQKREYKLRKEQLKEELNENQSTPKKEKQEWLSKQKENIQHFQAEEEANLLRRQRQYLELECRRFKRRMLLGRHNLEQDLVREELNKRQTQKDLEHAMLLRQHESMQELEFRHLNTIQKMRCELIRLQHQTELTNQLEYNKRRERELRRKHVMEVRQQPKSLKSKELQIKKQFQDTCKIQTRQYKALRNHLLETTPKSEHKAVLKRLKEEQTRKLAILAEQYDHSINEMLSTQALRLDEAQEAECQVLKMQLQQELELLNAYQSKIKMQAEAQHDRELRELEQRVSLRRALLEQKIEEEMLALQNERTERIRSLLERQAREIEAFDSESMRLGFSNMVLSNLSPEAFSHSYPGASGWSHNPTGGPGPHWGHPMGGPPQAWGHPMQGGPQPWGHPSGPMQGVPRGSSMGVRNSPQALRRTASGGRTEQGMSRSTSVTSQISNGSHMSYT
Chain of UniProt Q13470 (whole entry, looked up): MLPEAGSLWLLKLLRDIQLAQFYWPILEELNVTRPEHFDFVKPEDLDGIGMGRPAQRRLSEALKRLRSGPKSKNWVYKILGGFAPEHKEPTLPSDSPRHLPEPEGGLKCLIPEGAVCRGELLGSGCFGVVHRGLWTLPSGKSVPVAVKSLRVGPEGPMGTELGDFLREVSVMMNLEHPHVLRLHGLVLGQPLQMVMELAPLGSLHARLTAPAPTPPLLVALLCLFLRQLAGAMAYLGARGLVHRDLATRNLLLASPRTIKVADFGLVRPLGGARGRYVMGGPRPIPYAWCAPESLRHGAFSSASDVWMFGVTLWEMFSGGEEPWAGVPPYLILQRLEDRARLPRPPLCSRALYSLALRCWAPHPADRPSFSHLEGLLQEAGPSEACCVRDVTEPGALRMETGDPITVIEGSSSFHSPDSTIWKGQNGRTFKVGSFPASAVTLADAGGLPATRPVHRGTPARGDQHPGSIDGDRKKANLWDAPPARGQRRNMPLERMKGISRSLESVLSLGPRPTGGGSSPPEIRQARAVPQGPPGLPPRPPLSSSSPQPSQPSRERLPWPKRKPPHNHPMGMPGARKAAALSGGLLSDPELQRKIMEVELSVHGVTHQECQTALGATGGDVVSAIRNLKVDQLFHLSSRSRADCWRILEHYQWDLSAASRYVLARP
Chain of UniProt O14733 (whole entry, looked up): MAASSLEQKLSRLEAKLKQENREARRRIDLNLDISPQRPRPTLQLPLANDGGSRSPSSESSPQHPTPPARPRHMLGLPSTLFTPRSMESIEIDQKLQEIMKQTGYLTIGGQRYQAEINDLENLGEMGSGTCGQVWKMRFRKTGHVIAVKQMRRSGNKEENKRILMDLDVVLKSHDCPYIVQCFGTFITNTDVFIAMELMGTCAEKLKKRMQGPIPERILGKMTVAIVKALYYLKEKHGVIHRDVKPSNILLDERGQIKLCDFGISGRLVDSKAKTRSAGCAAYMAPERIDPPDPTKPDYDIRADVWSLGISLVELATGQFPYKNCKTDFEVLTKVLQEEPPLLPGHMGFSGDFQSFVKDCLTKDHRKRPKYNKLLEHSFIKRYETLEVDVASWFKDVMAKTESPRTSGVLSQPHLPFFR

Sample 1
Target: Beta-1 adrenergic receptor (ADRB1, Homo sapiens, UniProt P08588)
Chain of UniProt P08588 (whole entry, looked up): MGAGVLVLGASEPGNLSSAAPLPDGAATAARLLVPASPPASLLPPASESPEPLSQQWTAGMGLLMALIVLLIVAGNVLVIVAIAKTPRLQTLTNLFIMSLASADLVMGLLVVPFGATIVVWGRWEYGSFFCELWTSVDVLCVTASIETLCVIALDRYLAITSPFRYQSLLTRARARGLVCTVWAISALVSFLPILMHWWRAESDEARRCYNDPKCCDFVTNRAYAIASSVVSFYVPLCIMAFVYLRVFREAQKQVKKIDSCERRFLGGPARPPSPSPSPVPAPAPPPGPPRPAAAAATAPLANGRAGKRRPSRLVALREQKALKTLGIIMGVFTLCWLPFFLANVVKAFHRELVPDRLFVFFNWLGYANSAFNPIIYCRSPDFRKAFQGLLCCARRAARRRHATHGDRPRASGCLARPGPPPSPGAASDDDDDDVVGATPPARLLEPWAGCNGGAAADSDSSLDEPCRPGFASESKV
Mode: antagonist
Endpoint: IC50
CCN(CC)C(=O)c1cc(-c2cnc(C(C)C)nc2)nc2c(C)c(C)ccc12: ≥ 100 µM
c1cc(N[C@@H]2CCNC2)nc(-c2cnc3ccc(-c4cn[nH]c4)cn23)c1: ≥ 100 µM
CC(Cc1cccc(C(F)(F)F)c1)NCCOC(=O)c1ccccc1 (centres unmarked): ≥ 100 µM
Fc1ccc(-c2c[nH]c([C@@H]3COCCN3Cc3cccnc3)n2)c(F)c1: ≥ 100 µM
Fc1ccc(-c2ccc3ncc(Nc4cc(F)cc(N5CCOCC5)c4)n3n2)cc1: ≥ 100 µM
CC(C)SCC[C@@H](N)[C@H](O)C(=O)NNC(=O)c1cccc(Cl)c1: ≥ 100 µM
Clc1ccccc1N1CCN(C2CCNCC2)CC1: ≥ 100 µM
COc1ccc(OCC(O)CN2CCC(O)CC2)c(CN(C)Cc2csc(C)n2)c1 (centres unmarked): ≥ 100 µM
Cc1cc(=O)oc2cc(NC(=O)CCCCCCC(=O)NO)ccc12: ≥ 100 µM
CN(c1ccccc1)c1cc(=O)c2ccnc(NCc3cnccn3)c2o1: ≥ 100 µM

Sample 2
Target: Tyrosine-protein kinase SYK (SYK, Homo sapiens, UniProt P43405)
Read-out: enzyme activity
Mode: inhibitor
Concentration: 0.5 µM
Baseline: control
Endpoint: remaining activity
O=S(=O)(NCCNC/C=C/c1ccc(Br)cc1)c1cccc2cnccc12: 77.7%
CC[n+]1c(/C=C/N(C)c2ccccc2)n(-c2ccccc2)c2ccc(-c3nc4ccccc4s3)cc21: 104%
Cc1cc(Nc2nc(-c3ccccc3)nc3ccccc23)n[nH]1: 61.9%
CC#CC(=O)Nc1cc2c(Nc3ccc(F)c(Cl)c3)ncnc2cn1: 95.4%
CC(C)(C)n1nc(Cc2cccc3ccccc23)c2c(N)ncnc21: 95.7%
COc1ccc(S(=O)(=O)N(CCO)c2ccccc2CN(C)CC=Cc2ccc(Cl)cc2)cc1: 101%
Cc1ccc(NC2=CC(=O)c3sc(C)nc3C2=O)cc1: 97.9%
Oc1ccc(Nc2nc(-c3ccc(Cl)cc3)cs2)cc1: 93.8%
Nc1ncnc2c1cnn2-c1ccccc1: 96%
Nc1nccc(-c2c(-c3ccc(F)cc3)ncn2C2CCNCC2)n1: 98%
CCCC(=O)Oc1ccc2[nH]c(C(=O)c3cc4ccccc4[nH]3)cc2c1: 93.9%
Cc1cncc2cccc(S(=O)(=O)N3CCCN(C(=O)CN)C[C@@H]3C)c12: 100%
CSc1nc(-c2ccnc(N[C@@H](C)c3ccccc3)c2)c(-c2ccc(F)cc2)[nH]1 (racemic): 96.8%
CC(=O)c1ccc(N2CCOCC2)cc1O: 92.6%
Fc1ccc(-c2nc3n(c2-c2ccncc2)CCS3)cc1: 98.3%
COc1cc(Nc2c(C#N)cnc3cc(OCCCN4CCN(C)CC4)c(OC)cc23)c(Cl)cc1Cl: 21.1%

Sample 3
SMILES: CNC(=O)Nc1ccc2c(c1)[C@@]1(CC2)OC(=O)N(CC(=O)N(Cc2ccc(F)cc2)[C@@H](C)C(F)(F)F)C1=O
Read-out: cell-free assay
Method: competition with immobilised ligand
Concentration: 1 µM
Endpoint: remaining binding
Tyrosine-protein kinase ABL1, phosphorylated (ABL1, Homo sapiens, UniProt P00519, M351T): 88%
TNK2 (Homo sapiens, UniProt Q07912): 87%
SBK3 (Homo sapiens, UniProt P0C264): 100%
DYRK1A (Homo sapiens, UniProt Q13627): 77%
Tyrosine-protein kinase ABL1, phosphorylated (ABL1, Homo sapiens, UniProt P00519, Q252H): 97%
MAP2K7 (Homo sapiens, UniProt O14733): 85%
PAK2 (Homo sapiens, UniProt Q13177): 94%
TNK1 (Homo sapiens, UniProt Q13470): 100%
KIT (Homo sapiens, UniProt P10721): 94%
TAOK1 (Homo sapiens, UniProt Q7L7X3): 97%
EGFR (Homo sapiens, UniProt P00533, L861Q): 100%
AAK1 (Homo sapiens, UniProt Q2M2I8): 100%
BRSK1 (Homo sapiens, UniProt Q8TDC3): 100%
MAP3K11 (Homo sapiens, UniProt Q16584): 91%
EPHB1 (Homo sapiens, UniProt P54762): 100%

Sample 4
Compound: CC(C)n1cnc(-c2ccc(F)cc2)c1-c1ncc(C(=O)Nc2ccc(N3CCN(C)CC3)cc2)[nH]1
Endpoint: patients with adverse event
Phase 2a trial, measured: blood glucose increased; human, idiopathic pulmonary fibrosis; 60 mg once daily, grade 4: 0%
Phase 2a trial, measured: haemoptysis; human, idiopathic pulmonary fibrosis; 30 mg once daily, grade 1: 0%
Phase 2a trial, measured: respiratory, thoracic, mediastinal disorders; human, idiopathic pulmonary fibrosis; 30 mg once daily, grade 3: 0%
Phase 2a trial, measured: haemoptysis; human, idiopathic pulmonary fibrosis; 30 mg once daily, grade 4: 0%
Phase 2a trial, measured: hepatic steatosis; human, idiopathic pulmonary fibrosis; 30 mg once daily, grade 3: 0%
Phase 2a trial, measured: blood glucose increased; human, idiopathic pulmonary fibrosis; 30 mg once daily, grade 1: 0%
measured: abnormal liver function test, grade 2; idiopathic pulmonary fibrosis patients; oral, 60 mg once daily: 0%
measured: skin papilloma, maximum grade 3; idiopathic pulmonary fibrosis patients; dose not given, all compound arms pooled: 0%
Phase 2a trial, measured: blood pressure increased; human, idiopathic pulmonary fibrosis; 60 mg once daily, grade 3: 0%
Phase 2a trial, measured: blood creatinine increased; human, idiopathic pulmonary fibrosis; 60 mg once daily, grade 5: 0%
Phase 2a trial, measured: hepatobiliary disorders; human, idiopathic pulmonary fibrosis; 60 mg once daily, grade 5: 0%
Phase 2a trial, measured: blood glucose increased; human, idiopathic pulmonary fibrosis; all compound arms total, grade 4: 0%

A few entries again (sample 3):
PAK2 (Homo sapiens, UniProt Q13177): 94%
TNK1 (Homo sapiens, UniProt Q13470): 100%
KIT (Homo sapiens, UniProt P10721): 94%
TAOK1 (Homo sapiens, UniProt Q7L7X3): 97%
EGFR (Homo sapiens, UniProt P00533, L861Q): 100%
AAK1 (Homo sapiens, UniProt Q2M2I8): 100%
BRSK1 (Homo sapiens, UniProt Q8TDC3): 100%
MAP3K11 (Homo sapiens, UniProt Q16584): 91%
